Results pooled from the literature.
Compare with care: the assays were run in different laboratories. ± gives the spread as reported.

| SMILES | test | test system | conditions | tissue uptake |
| --- | --- | --- | --- | --- |
| CCCC[C@@H]1NC(=O)[C@@H](NC(=O)[C@H](CCC(=O)O)NC(=O)CNC(=O)CN2CCN(CC(=O)O)CCN(CC(=O)O)CCN(CC(=O)O)CC2)CCCCNC(=O)C[C@@H](C(N)=O)NC(=O)[C@H](C(C)C)NC(=O)[C@@H]2CCCN2C(=O)[C@H](CCCNC(=N)N)NC(=O)CNC(=O)[C@H](Cc2c[nH]c3ccccc23)NC(=O)[C@H](CCCNC(=N)N)NC(=O)[C@@H](Cc2ccccc2)NC(=O)[C@H](Cc2c[nH]cn2)NC(=O)[C@H](CCC(=O)O)NC1=O [gallium-67 labelled] |  | C57 mice, B16/F10 lung metastases, muscle | intravenous, 0.037 MBq/mouse, 4 h | 0.17 ± 0.11 %ID/g |
| CN1C(=O)[C@@H](Cc2ccc(O)c(I)c2)NC(=O)CNC(=O)[C@H](Cc2ccc3ccccc3c2)NC(=O)[C@H](CCCNC(=N)N)NC(=O)[C@H]1CCCNC(=O)c1ccc(CNC(=O)CN2CCN(CC(=O)O)CCN(CC(=O)O)CCN(CC(=O)O)CC2)cc1 [lutetium-177 labelled] | refers to: 177Lu radioactivity | female CB-17 SCID mice, Daudi xenograft, brain | intravenous, 0.16 nmol per mouse, 96 h | 0.006 ± 0.001 %ID/g |
| NC12CNCCNCC(NCc3ccc(CNC(=O)CCCC(=O)NCc4ccc(-c5nncnn5)cc4)cc3)(CNCCNC1)CNCCNC2.[64Cu+2] |  | athymic nude mice SW1222 xenograft, spleen | 1 h post injection, 24 h accumulation interval, together with: huA33-TCO pretargeting | 0.98 ± 0.25 %ID/g |
| N=C(N)NCCC[C@H](NC(=O)CON=C[C@H](F)[C@@H](O)[C@H](O)[C@H](O)CO)C(=O)NCC(=O)N[C@@H](CC(=O)O)C(=O)O [fluorine-18 labelled] |  | nude mice U-87 MG tumour, heart | intravenous, 2 h | 3.67 ± 0.26 %ID/g |
| O=C([O-])CN1CCN(CC(=O)[O-])CCN(CC(=O)[O-])CCN(CC(=O)[O-])CC1.[64Cu+2] |  | healthy athymic nude mice, spleen | intravenous, 1 h | 0.34 %ID/g |
| CCCC[C@H](NC(=O)CNC(=O)CNC(=O)CN1CCN(CC(=O)O)CCN(CC(=O)O)CC1)C(=O)N[C@H]1CC(=O)NCCCC[C@@H](C(N)=O)NC(=O)[C@H](Cc2c[nH]c3ccccc23)NC(=O)[C@H](CCCNC(=N)N)NC(=O)[C@@H](Cc2ccccc2)NC(=O)[C@H](Cc2c[nH]cn2)NC1=O [gallium-67 labelled] |  | female C57 mice, B16/F1 melanoma, heart | intravenous, 0.037 MBq, 24 h | 0.96 ± 0.39 %ID/g |
| CC(C)[C@H](NC(=O)[C@@H]1CCCN1C(=O)[C@H](CCCNC(=N)N)NC(=O)[C@H](CS)NC(=O)[C@H](Cc1c[nH]c2ccccc12)NC(=O)[C@H](CCCNC(=N)N)NC(=O)[C@@H](Cc1ccccc1)NC(=O)[C@H](Cc1c[nH]cn1)NC(=O)[C@H](CCC(=O)O)NC(=O)[C@H](CS)NC(=O)[C@H](CS)NC(=O)[C@@H]1CC(=O)N[C@@H](CCCNC(=N)N)C(=O)NCC(=O)N[C@@H](CC(=O)O)C(=O)N[C@H](Cc2ccc(O)cc2)C(=O)N1)C(N)=O [technetium-99m labelled] |  | C57 mice B16/F1 melanoma female, lung | iv, 2 h, together with: NDP-MSH 10 µg co-injected | 1.13 ± 0.22 %ID/g |
| CCCC[C@H](NC(=O)CN1CCC(NC(=O)CN2CCN(CC(=O)O)CCN(CC(=O)O)CCN(CC(=O)O)CC2)CC1)C(=O)N[C@H]1CC(=O)NCCCC[C@@H](C(N)=O)NC(=O)[C@H](Cc2c[nH]c3ccccc23)NC(=O)[C@H](CCCNC(=N)N)NC(=O)[C@@H](Cc2ccccc2)NC(=O)[C@H](Cc2c[nH]cn2)NC1=O [gallium-68 labelled] |  | C57BL/6J mice male B16-F10 tumour, pancreas | 2 h post injection, unblocked | 0.1 %ID/g |

Repeated from above:
| SMILES | test | test system | conditions | tissue uptake |
| --- | --- | --- | --- | --- |
| CCCC[C@H](NC(=O)CN1CCC(NC(=O)CN2CCN(CC(=O)O)CCN(CC(=O)O)CCN(CC(=O)O)CC2)CC1)C(=O)N[C@H]1CC(=O)NCCCC[C@@H](C(N)=O)NC(=O)[C@H](Cc2c[nH]c3ccccc23)NC(=O)[C@H](CCCNC(=N)N)NC(=O)[C@@H](Cc2ccccc2)NC(=O)[C@H](Cc2c[nH]cn2)NC1=O [gallium-68 labelled] |  | C57BL/6J mice male B16-F10 tumour, pancreas | 2 h post injection, unblocked | 0.1 %ID/g |
